# Measurements of several laboratories.
# Compare with care: the assays were run in different laboratories. ± marks the error that the study gave.
# Organism: Candida albicans
Compound,test,system,setting,scale,endpoint,result
C[C@@H]1[C@H](O)[C@@H](C)/C=C/C=C/C=C/C=C/C=C/C=C/C=C/[C@H](O[C@@H]2O[C@H](C)[C@@H](O)[C@H](N)[C@@H]2O)C[C@@H]2O[C@](O)(C[C@@H](O)C[C@@H](O)[C@H](O)CC[C@@H](O)C[C@@H](O)CC(=O)O[C@H]1C)C[C@H](O)[C@H]2C(=O)O,,,"concentration not given, lipid-supplemented medium, added: ergosterol, PC or PI supplement",,antifungal activity,no effect
CO[C@H]1[C@H](O[C@H]([C@H]2O[C@@H](n3ccc(=O)[nH]c3=O)[C@H](O)[C@@H]2O)[C@H](NCCCNC(=O)[C@@H](NC(=O)[C@@H](NC(=O)N[C@H](C(=O)O)C(C)C)[C@@H]2CCN=C(N)N2)[C@@H](O)C(C)C)C(=O)O)O[C@H](CN)[C@H]1O,alamar blue,18 M,,,MIC50,> 35 µg/mL
OC(Cn1cncn1)(Cn1cncn1)c1ccc(F)cc1F,,"56214 clinical isolate, compound-resistant, RPMI-MOPS","48 h, 37 °C",,MIC,128 µM
Cc1n[nH]c2ccc(-c3cc(OC[C@@H](N)Cc4ccccc4)cnc3-c3ccoc3)cc12,"binding, MIB/MS competition",Candida albicans cell lysate,"10 µM, besides Yck2 and Hog1",,number of kinases,30
OC(Cn1cncn1)(Cn1cncn1)c1ccc(F)cc1F,EUCAST,YMS_102.2,48 h,,MIC50,100 µM
CC(C)c1ccc(/C=C2\N/C(=N/c3ccccc3)N(N)C2=O)cc1,,ATCC 10231,concentration not given,,inhibition zone diameter,11 ± 0.47 mm
Fc1ccccc1N/N=C/c1ccc(-c2cccc(/C=N/Nc3ccccc3F)c2)cc1,,ATCC MYA-2876 susceptible,,relative to: mammalian CC50 over MIC,selectivity index,< 0.5
O=C1/C(=C/c2ccc(O)cc2O)NC(=S)N1c1ccccc1,,ATCC 10231,concentration not given,,inhibition zone diameter,12 ± 0.32 mm
OC(Cn1cncn1)(Cn1cncn1)c1ccc(F)cc1F,,ATCC 60193,"1 × MIC, 12 h",,viable cell reduction,40 to 45%
O=C1/C(=C/c2ccc([N+](=O)[O-])cc2[N+](=O)[O-])NC(=S)N1c1ccccc1,,ATCC 10231,concentration not given,,inhibition zone diameter,15 ± 0.08 mm
COc1ccc(N2N=C(C(C)=O)SC2=C(C#N)C(=O)c2ccc(Nc3cnccn3)cc2)cc1,,ATCC 10231,concentration not given,,inhibition zone diameter,28 mm
CCCCCOc1ccc(-c2ccc(-c3ccc(C(=O)N[C@H]4C[C@@H](O)[C@@H](OCC[N+](C)(C)C)NC(=O)[C@@H]5[C@@H](O)[C@@H](C)CN5C(=O)[C@H]([C@@H](C)O)NC(=O)[C@H]([C@H](O)[C@@H](O)c5ccc(O)cc5)NC(=O)[C@@H]5C[C@@H](O)CN5C(=O)[C@H]([C@@H](C)O)NC4=O)cc3)cc2)cc1,CLSI broth microdilution,K-1,,,MIC,0.008 µg/mL
CCOC(=O)CSC1=N/C(=C\c2ccc(C(C)C)cc2)C(=O)N1c1ccccc1,,ATCC 10231,concentration not given,,inhibition zone diameter,11 ± 0.57 mm
OC(Cn1cncn1)(Cn1cncn1)c1ccc(F)cc1F,broth microdilution,321,"24 h, compound alone",,MIC,1 µg/mL
C[C@@H]1[C@H](O)[C@@H](C)/C=C/C=C/C=C/C=C/C=C/C=C/C=C/[C@H](O[C@@H]2O[C@H](C)[C@@H](O)[C@H](N)[C@@H]2O)C[C@@H]2O[C@](O)(C[C@@H](O)C[C@@H](O)[C@H](O)CC[C@@H](O)C[C@@H](O)CC(=O)O[C@H]1C)C[C@H](O)[C@H]2C(=O)O,,"56214 clinical isolate, fluconazole-resistant, RPMI-MOPS","48 h, 37 °C",,MIC,1 µM
O=C1C(Br)=C(Br)C(=O)c2ccccc21,,ATCC 60193,"concentration not given, 24 h, 35 °C, no effect, added: exogenous ergosterol",,MIC change,no effect
C(=N\Nc1ccccc1)/c1ccc(-c2ccc(/C=N/Nc3ccccc3)cc2)cc1,,ATCC 64124 resistant,,relative to: mammalian CC50 over MIC,selectivity index,< 0.6
CC(C)c1ccc(/C=C2\N=C(SCc3ccccc3)N(c3ccccc3)C2=O)cc1,,ATCC 10231,concentration not given,,inhibition zone diameter,12 ± 0.15 mm
Fc1cccc(N/N=C/c2ccc(-c3cccc(/C=N/Nc4cccc(F)c4)c3)cc2)c1,,ATCC 64124 resistant,,relative to: mammalian CC50 over MIC,selectivity index,< 0.4
CC(=O)ON=C1C=CC(=C(C#N)c2ccccc2)C=C1,planktonic growth,Sabouraud glucose broth,"2 µg/mL, 30 °C, at MIC",,growth,inhibited

# For quick reference, copied from above:
Compound,test,system,setting,scale,endpoint,result
Fc1cccc(N/N=C/c2ccc(-c3cccc(/C=N/Nc4cccc(F)c4)c3)cc2)c1,,ATCC 64124 resistant,,relative to: mammalian CC50 over MIC,selectivity index,< 0.4
